Published values from different studies.
Lines come from different studies, so protocols differ. “And” joins repeats or separate records; there may be more than shown. Numbers after ± are the reported error.
ABCG2: Broad substrate specificity ATP-binding cassette transporter ABCG2 (ABCG2, Homo sapiens, UniProt Q9UNQ0)
Sequence of UniProt Q9UNQ0 (whole entry, looked up): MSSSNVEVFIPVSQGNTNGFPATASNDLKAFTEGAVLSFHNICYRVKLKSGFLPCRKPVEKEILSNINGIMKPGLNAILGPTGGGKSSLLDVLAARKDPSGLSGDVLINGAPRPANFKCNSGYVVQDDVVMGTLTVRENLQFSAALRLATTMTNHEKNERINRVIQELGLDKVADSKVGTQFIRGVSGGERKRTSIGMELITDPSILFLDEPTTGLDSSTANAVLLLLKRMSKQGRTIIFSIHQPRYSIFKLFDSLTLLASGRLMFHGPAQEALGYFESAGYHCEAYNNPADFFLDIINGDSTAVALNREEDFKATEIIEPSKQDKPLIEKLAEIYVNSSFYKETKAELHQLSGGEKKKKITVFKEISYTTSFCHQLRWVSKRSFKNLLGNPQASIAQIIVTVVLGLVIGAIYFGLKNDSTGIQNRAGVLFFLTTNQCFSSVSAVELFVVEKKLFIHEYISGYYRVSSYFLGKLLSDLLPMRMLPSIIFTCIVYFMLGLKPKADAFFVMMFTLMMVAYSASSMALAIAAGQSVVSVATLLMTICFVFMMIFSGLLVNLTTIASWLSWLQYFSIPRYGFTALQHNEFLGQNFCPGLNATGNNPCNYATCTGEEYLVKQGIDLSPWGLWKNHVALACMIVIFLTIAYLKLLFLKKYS
TF: TF (Homo sapiens, UniProt P02787)
SLCO1B3: Solute carrier organic anion transporter family member 1B3 (SLCO1B3, Homo sapiens, UniProt Q9NPD5)
Sequence of UniProt P11712 (whole entry, looked up): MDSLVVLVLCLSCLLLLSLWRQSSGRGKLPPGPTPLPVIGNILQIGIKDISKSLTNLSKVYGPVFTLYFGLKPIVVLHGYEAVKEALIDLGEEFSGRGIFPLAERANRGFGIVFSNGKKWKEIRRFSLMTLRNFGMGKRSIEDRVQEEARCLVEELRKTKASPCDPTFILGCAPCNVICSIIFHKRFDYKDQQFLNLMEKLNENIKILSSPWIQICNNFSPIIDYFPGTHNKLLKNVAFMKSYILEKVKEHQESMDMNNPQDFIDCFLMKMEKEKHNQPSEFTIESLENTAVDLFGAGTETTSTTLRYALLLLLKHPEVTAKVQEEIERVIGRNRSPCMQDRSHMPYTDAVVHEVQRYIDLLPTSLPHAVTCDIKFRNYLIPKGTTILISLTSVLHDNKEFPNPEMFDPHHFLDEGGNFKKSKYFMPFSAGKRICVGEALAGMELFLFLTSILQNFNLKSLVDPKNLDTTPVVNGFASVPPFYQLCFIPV
Sequence of UniProt Q9NPD5 (whole entry, looked up): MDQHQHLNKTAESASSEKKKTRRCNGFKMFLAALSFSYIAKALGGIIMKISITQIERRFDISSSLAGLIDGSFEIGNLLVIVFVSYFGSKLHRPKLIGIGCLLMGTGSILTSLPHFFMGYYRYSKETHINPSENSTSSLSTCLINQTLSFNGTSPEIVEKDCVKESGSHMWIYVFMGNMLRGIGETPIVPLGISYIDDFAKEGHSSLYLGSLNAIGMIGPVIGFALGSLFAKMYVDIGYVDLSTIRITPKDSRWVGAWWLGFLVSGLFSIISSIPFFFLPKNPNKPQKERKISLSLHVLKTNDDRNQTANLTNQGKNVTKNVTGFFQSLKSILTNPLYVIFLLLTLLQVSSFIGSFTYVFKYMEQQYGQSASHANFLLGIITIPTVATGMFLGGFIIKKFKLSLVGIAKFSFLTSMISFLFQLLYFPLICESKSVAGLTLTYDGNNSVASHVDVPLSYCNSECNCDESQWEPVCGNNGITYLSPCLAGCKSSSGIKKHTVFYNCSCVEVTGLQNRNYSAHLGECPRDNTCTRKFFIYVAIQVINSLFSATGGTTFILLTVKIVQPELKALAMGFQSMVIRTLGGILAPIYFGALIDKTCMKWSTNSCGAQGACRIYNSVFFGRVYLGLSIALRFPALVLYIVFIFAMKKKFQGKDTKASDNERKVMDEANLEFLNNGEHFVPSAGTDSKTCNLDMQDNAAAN
Sequence of UniProt P11509 (whole entry, looked up): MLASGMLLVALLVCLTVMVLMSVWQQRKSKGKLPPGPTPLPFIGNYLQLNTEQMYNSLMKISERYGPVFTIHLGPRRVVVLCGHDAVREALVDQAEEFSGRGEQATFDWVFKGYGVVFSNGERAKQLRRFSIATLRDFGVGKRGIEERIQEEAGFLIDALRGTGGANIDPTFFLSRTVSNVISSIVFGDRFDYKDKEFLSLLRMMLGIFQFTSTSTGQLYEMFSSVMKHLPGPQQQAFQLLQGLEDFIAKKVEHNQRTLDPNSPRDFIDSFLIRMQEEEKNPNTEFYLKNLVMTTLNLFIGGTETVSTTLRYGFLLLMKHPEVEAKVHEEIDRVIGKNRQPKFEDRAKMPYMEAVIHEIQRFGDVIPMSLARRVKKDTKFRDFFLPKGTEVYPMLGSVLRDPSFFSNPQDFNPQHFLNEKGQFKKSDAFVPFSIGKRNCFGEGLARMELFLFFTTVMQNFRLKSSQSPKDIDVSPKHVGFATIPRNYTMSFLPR

C=CC(=O)Nc1cc(Nc2nccc(-c3cn(C)c4ccccc34)n2)c(OCC(F)(F)F)nc1N(C)CCN(C)C  contribution to substrate depletion (Cytochrome P450 2A6 (CYP2A6, Homo sapiens, UniProt P11509); substrate; 3 µM, 60 min, 2A6 isoform, liver abundance-normalized): 3.03%
C[C@@]1(F)[C@H](O)[C@@H](CO)O[C@H]1n1cnc2c(=O)[nH]c(N)nc21  Papp A to B (ABCG2; bidirectional transport; MDCKII transfected with human BCRP; 10 µM, added: Ko143 1 µM): 2.66 ± 0.17 ×10⁻⁶ cm/s
CN(O)C(=O)CCC(=O)NCCCN(CCCCN(CCCNC(=O)CCC(=O)N(C)O)C(=O)CCC(=O)N(C)O)C(=O)CCC(=O)N(C)O.[89Zr]  transferrin binding (TF; transchelation challenge; concentration not given, 3 days, 37 °C, added: apo-transferrin 10 equiv): 12.1 ± 1.6%
O=C(c1ccc(OCCN2CCCCC2)cc1)c1c(-c2ccc(O)cc2)sc2cc(O[C@@H]3O[C@H](C(=O)O)[C@@H](O)[C@H](O)[C@H]3O)ccc12  Km (SLCO1B3; transporter uptake, substrate; HEK293; pH 7.4): 11.7 µM
O=C(O)c1cccc(CN2Cc3cccc(n3)CN(Cc3cccc(C(=O)O)n3)Cc3cccc(n3)C2)n1  log stability constant, hydroxo complex (Mn2+; potentiometric titration; 0.16 M NaCl; 25 °C): 9.63
CC(C)(C)N1Cc2cccc(n2)CN(C(C)(C)C)Cc2cc(-c3nc4ccccc4s3)cc(n2)C1  pKa (Zn(II) complex; UV-vis titration; bound water deprotonation): 8.12
CN(CCNCc1ccncc1[O-])CCNCc1ccncc1[O-].[Cl-].[Fe+3]  transchelation half-life (TF; pH 7.4, 37 °C, 4-fold transferrin decrease): 46 min
c1ccc(CN2Cc3cccc(n3)CN(Cc3ccccn3)Cc3cccc(n3)C2)nc1  pMn (Mn2+; potentiometric titration; pH 7.4, ligand and Mn2+ 10 µM): 7.73
CN(CCNCc1cc(C(=O)[O-])ccc1[O-])CCNCc1cc(C(=O)[O-])ccc1[O-].[Cl-].[Fe+3].[K+].[K+]  transchelation half-life (TF; 0.05 mM, pH 7.4, 37 °C, added: transferrin 0.10 mM): 10 min
CNC(=O)C1CCCN(C(=O)C2CC3CCC2N3C(=O)[C@@H]2C[C@@H](O)CN2C(=O)NCc2cccc(Cl)c2F)C1 (mixture of isomers)  remaining activity (Cytochrome P450 2C9 (CYP2C9, Homo sapiens, UniProt P11712); preincubation with NADPH; human; 1.85 µM; baseline: negative control): 93.6% and 109% and 98.7%
CNc1nc(N)nc2c1ncn2[C@@H]1O[C@H](CO[P@](=O)(O)N[C@@H](C)C(=O)O)[C@@H](O)[C@@]1(C)F  Papp B to A (ABCG2; bidirectional transport; MDCKII transfected with human BCRP; 10 µM): 1.14 ± 0.03 ×10⁻⁶ cm/s
O=C(c1ccc(OCCN2CCCCC2)cc1)c1c(-c2ccc(O[C@@H]3O[C@H](C(=O)O)[C@@H](O)[C@H](O)[C@H]3O)cc2)sc2cc(O)ccc12  inhibition (SLCO1B3; transporter uptake, inhibitor; HEK293; 10 µM, pH 7.4): 50%
c1cc2nc(c1)CSCc1cccc(n1)CSC2  pKa (Zn(II) complex; UV-vis titration; bound water deprotonation): 9.6
CNc1nc(N)nc2c1ncn2[C@@H]1O[C@H](CO)[C@@H](O)[C@@]1(C)F  Papp A to B (ABCG2; bidirectional transport; MDCKII transfected with human BCRP; 10 µM, added: Ko143 1 µM): 9.43 ± 0.21 ×10⁻⁶ cm/s

Excerpt of the above:
CNC(=O)C1CCCN(C(=O)C2CC3CCC2N3C(=O)[C@@H]2C[C@@H](O)CN2C(=O)NCc2cccc(Cl)c2F)C1 (mixture of isomers)  remaining activity (Cytochrome P450 2C9 (CYP2C9, Homo sapiens, UniProt P11712); preincubation with NADPH; human; 1.85 µM; baseline: negative control): 93.6% and 109% and 98.7%
C[C@@]1(F)[C@H](O)[C@@H](CO)O[C@H]1n1cnc2c(=O)[nH]c(N)nc21  Papp A to B (ABCG2; bidirectional transport; MDCKII transfected with human BCRP; 10 µM, added: Ko143 1 µM): 2.66 ± 0.17 ×10⁻⁶ cm/s
